{"data": "Published values gathered from unrelated publications", "note": "Each numbered part is a random draw from the data of one study; scales do not carry over between parts."}
{"data": "Set 1", "target": "RNA binding protein fox-1 homolog 2, RRM domain, GST-SBP tag (RBFOX2, Homo sapiens, UniProt O43251-10, residues 100-194)", "technique": "RNA Bind-n-Seq", "form": "RNA", "matrix": "in vitro", "concentration": "365 nM", "setting": "natural RNA segment, single round, ends assumed", "baseline": "no-protein control", "reading": "higher = stronger binding", "constant ends, left off below": "GGGAGUUCUACAGUCCGACGAUC … UGGAAUUCUCGGGUGCCAA", "Target sequence (chain)": "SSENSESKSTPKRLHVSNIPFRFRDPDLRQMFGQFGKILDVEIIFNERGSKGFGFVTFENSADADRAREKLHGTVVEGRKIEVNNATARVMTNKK"}
{"Strand": "UGGUGGCUAGGAAGGCAGAGCGCCCUCAGCCCAGCAUAUAGCUGUGAGUAUGUAAUAAAUCACUGCCGGCUCCUGUGGCUCGUUCAUUCUGCUCCUCCCCCACCCCCACC", "RBNS enrichment (R)": 0.707}
{"Strand": "AGCGAAUGGUGAAAGCUACUGAAAUAAGCUGUGAUUGUACUGUACAUAAAACAUAUGAGGAAUCUGCAAGGAACACUACAGUUGUGUAAAGUUGUUCUGUUAACUUUUGU", "RBNS enrichment (R)": 0.445}
{"Strand": "UUUCAUAAUCGAUGUGGUCUACUAAGAAAGAUAACAAUUUGUGCUAAAAUGCCCAUGUUUACCUGUAUUGACCAAAGCUUUCAGUUGUUCUUCAUUCUGUGCUCAGGAUU", "RBNS enrichment (R)": 0.328}
{"Strand": "AAGGUAAACGCAGAUUGUAUCUUUUUUAAUGGUACGGCAUAAAAAGUAACCCUCAAGUGAAGUGUCUCUAUACUGUUUUAUAGAGUACUUUAACAUGAAUAGAUACCUUG", "RBNS enrichment (R)": 0.35}
{"Strand": "UCAUGCUUCUACAAGGUGAAGUGUGUUUGGGGAAACUGAGCUCUAACAAAAGCCGCGACAGCCACCAGGCAGGCUUUUCCUUAUACAUGACAGAAGUUCGUAUUACGCCU", "RBNS enrichment (R)": 0.299}
{"Strand": "UUAACUGUGAUCCAGUACCUGUAAUACAGGAACACACAAUGUAUAUGGGGAAGCCCUUUGGCUUCAGAUUGCCUAUGUUUGAAUAAUAAUAAUAAUAGAUGGCCUAUUGU", "RBNS enrichment (R)": 0.725}
{"Strand": "AUGGCUUUCAUCCUGUGUCCCCUGACCUGUCCAGGUGAGUGUGAGGGCAGCACUGGGAAGCUGGAGUGCUGCUUGUGCCUCCCUUCCCAGUGGGCUGUGUUGACUGCUGC", "RBNS enrichment (R)": 0.359}
{"Strand": "UAGAUCUCUGUCUUCAGUCUCAUUUAAAGUCUUCAUGAAAUGCUGUGCCAUUUCAUGUCCUGUGUCAGUUUAUGUUUUGGUCCACUUUUCCAGUAUUUUAGUGGACCCUG", "RBNS enrichment (R)": 0.56}
{"data": "Set 2", "target": "Ras GTPase-activating protein-binding protein 1, RRM domain (G3BP1, Homo sapiens, UniProt Q13283)", "technique": "RNA Bind-n-Seq", "form": "RNA", "matrix": "in vitro", "concentration": "1 µM", "setting": "whole 134-nt RNA, ends assumed", "together with": "150 mM KCl", "baseline": "input library", "reading": "higher = stronger binding", "constant ends, left off below": "GGGAGUUCUACAGUCCGACGAUC … UGGAAUUCUCGGGUGUCAAGG", "UniProt Q13283, sequence (whole entry, looked up)": "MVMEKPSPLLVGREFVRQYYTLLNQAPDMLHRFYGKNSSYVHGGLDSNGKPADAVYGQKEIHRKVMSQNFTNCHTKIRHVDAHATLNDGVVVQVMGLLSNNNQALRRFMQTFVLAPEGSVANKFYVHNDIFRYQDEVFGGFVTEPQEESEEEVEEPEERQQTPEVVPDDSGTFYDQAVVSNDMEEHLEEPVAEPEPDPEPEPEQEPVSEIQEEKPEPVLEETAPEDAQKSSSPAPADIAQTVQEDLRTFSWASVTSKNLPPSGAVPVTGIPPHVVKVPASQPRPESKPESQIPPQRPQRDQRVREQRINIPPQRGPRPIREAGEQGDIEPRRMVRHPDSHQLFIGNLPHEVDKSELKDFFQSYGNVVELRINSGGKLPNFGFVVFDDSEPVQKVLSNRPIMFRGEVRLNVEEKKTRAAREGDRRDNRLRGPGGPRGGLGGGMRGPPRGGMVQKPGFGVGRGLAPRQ"}
{"Strand": "UCCUGUGCUACACAUCGUAUGUACCGAAUCGGGGAAAAAGGGGAGGGGAAAAAAAGGGGAAAGUAUUAUGUUACGCCGUUCGGAUCUGCA", "log2 enrichment": 0.604}
{"Strand": "CACAGACAACACGCACCCACACAGACACAGAGGGAAGGGGUUGGGAUGGGGACAGGGUGCACAGCAGGGAAAGGUAGGACCCCAGCCCCU", "log2 enrichment": -0.192}
{"Strand": "UCCUGUGCUACACAUCGUAUGUACCGAAUCAAAUUUUUAAAUUUUUAAACCCCCCCAAAAAAGUAUUAUGUUACGCCGUUCGGAUCUGCA", "log2 enrichment": -0.929}
{"Strand": "UCCUGUGCUACACAUCGUAUGUACCGAAUCGGGCCCCCGGGGCCCCCGGGGCCCCCGGGGAAAGUAUUAUGUUACGCCGUUCGGAUCUGC", "log2 enrichment": -0.805}
{"Strand": "AAGUCCUGUGCUACACAUCGUAUGUACCGAAUCGGGAAAAAGGGUUUUUGGGAGGGAAAGUAUUAUGUUACGCCGUUCGGAUCUGCACUU", "log2 enrichment": 0.779}
{"Strand": "CCUUUUUGAGAAGGCCGGACCCAUUUGGGAUCUACGUCUUAUGAUGGAUCCACUGUCCGGUCAGAAUAGAGGGUAUGCAUUUAUCACCUU", "log2 enrichment": -0.288}
{"Strand": "UGUGCUACACAUCGUAUGUACCGAAUCGGGGUUUUUUUGGGGUUUUUUUGGUUUUUUUGGGGAAAGUAUUAUGUUACGCCGUUCGGAUCU", "log2 enrichment": -0.308}
{"Strand": "ACCAUGCAGGUGGGCAUCUUUGGGAAGUGGGGCAAGGGGGUGAUAGGGAGGGGGGUAACACUUUGGGAACAGGUGGUCCCAGGUCGUUUC", "log2 enrichment": 1.12}
{"Strand": "CAAGUCCUGUGCUACACAUCGUAUGUACCGAAUCGGUUUUGGGUUUUGGUUUUGGGAAAGUAUUAUGUUACGCCGUUCGGAUCUGCACUU", "log2 enrichment": -0.232}
{"data": "Set 3", "target": "Sal-like protein 4, full length isoform B (SALL4, Homo sapiens, UniProt Q9UJQ4-2, residues 1-616)", "technique": "universal PBM", "form": "double-stranded DNA, one strand shown", "matrix": "in vitro", "concentration": "not given", "setting": "8-mer, flanks averaged, mean of replicates", "reading": "higher = stronger binding"}
{"Strand": "CGAAAGAC", "E-score": -0.0416}
{"Strand": "CGGTGATC", "E-score": -0.302}
{"Strand": "CACGACCG", "E-score": -0.287}
{"Strand": "ACTCGCAT", "E-score": 0.0673}
{"Strand": "ATGCTGGG", "E-score": -0.225}
{"Strand": "ATTTCCAC", "E-score": 0.195}
{"Strand": "AGGTTCAG", "E-score": 0.0122}
{"Strand": "TCATGAAA", "E-score": 0.13}
{"Strand": "CGCAAGAG", "E-score": -0.117}
{"Strand": "ATTCCAGC", "E-score": -0.112}
{"Strand": "CACGCTTA", "E-score": 0.101}
{"Strand": "TAAACGGA", "E-score": 0.149}
{"Strand": "GGGCTTAA", "E-score": -0.0492}
{"Strand": "AGGGTACC", "E-score": -0.232}
{"Strand": "CAGGTTGA", "E-score": -0.14}
{"Strand": "GTTTTTGA", "E-score": 0.231}
{"data": "Set 4", "target": "Histone acetyltransferase KAT6A, winged helix 1, GST fusion (KAT6A, Homo sapiens, UniProt Q92794, residues 1-85)", "technique": "protein binding microarray", "form": "double-stranded DNA, one strand shown", "matrix": "in vitro", "concentration": "not given", "setting": "8-mer, flanks averaged, mean of 2 arrays, mostly near background", "baseline": "not given", "reading": "higher = stronger binding", "Target sequence (chain)": "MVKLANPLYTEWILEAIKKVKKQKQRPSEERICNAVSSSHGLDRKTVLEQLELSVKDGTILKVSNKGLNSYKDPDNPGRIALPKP"}
{"Strand": "AAGGCGGC", "E-score": 0.243}
{"Strand": "CGCGGGAC", "E-score": 0.379}
{"Strand": "CATTCAAC", "E-score": -0.0751}
{"Strand": "CAGTTTGA", "E-score": -0.216}
{"Strand": "AATATTTG", "E-score": -0.165}
{"Strand": "CCTGATTA", "E-score": -0.114}
{"Strand": "GGTCCAAC", "E-score": -0.00337}
{"Strand": "AGACTAGG", "E-score": -0.103}
{"Strand": "AGGACGTG", "E-score": -0.0938}
{"Strand": "TCATCCGA", "E-score": 0.0152}
{"Strand": "ACCCAGCT", "E-score": -0.191}
{"Strand": "TAATTCAA", "E-score": -0.166}
{"Strand": "ACGAGACC", "E-score": 0.0342}
{"Strand": "TATCTACA", "E-score": -0.132}
{"Strand": "AACGGATC", "E-score": -0.0485}
{"Strand": "CCGGTAGG", "E-score": 0.0593}
{"Strand": "ACCTTGAT", "E-score": -0.204}
{"Strand": "CTAAGGCC", "E-score": 0.0929}
{"Strand": "ATGGAAGA", "E-score": -0.212}
{"Strand": "GCGTATTA", "E-score": 0.124}
{"Strand": "TAGCACCA", "E-score": -0.194}
{"note": "For quick reference, copied from above (set 4):"}
{"Strand": "AATATTTG", "E-score": -0.165}
{"Strand": "ACCTTGAT", "E-score": -0.204}
{"Strand": "TAGCACCA", "E-score": -0.194}
{"Strand": "TATCTACA", "E-score": -0.132}
{"Strand": "CTAAGGCC", "E-score": 0.0929}
{"Strand": "TCATCCGA", "E-score": 0.0152}
{"Strand": "AGACTAGG", "E-score": -0.103}
{"Strand": "CAGTTTGA", "E-score": -0.216}
{"Strand": "CGCGGGAC", "E-score": 0.379}
